Measured values pooled from the literature.
Each line is one published result; not all experiments were run side by side. ± marks the error that the study gave.

Structure (SMILES) | assay | system | conditions | scale | quantity | value
Cn1cc(-c2nc(N[C@@H]3CCCC[C@@H]3N)c(F)c3c2C(=O)NC3)cn1 | measured: Rectal haemorrhage | patients with relapsed or refractory AML | oral, 100 mg once daily | – | hemorrhagic adverse events | 14%
CCC[C@@](N)(CO)CCc1ccc(OCCCCCC(C)C)cc1 | – | dog, male hounds, plasma | oral capsule, 10 mg/kg, geometric mean | – | AUC(0-72 h) | 6.78 µM·h
C[C@]1(CO)Cc2ncn(-c3ccc(C#N)c(Cl)c3)c2C(=O)O1 | – | healthy humans | concentration not given, multiple dose part total | – | drug-related Fatigue incidence | 2.2%
COc1cc(C(=O)NC2CCN(C)CC2)c(F)cc1Nc1ncc(C(F)(F)F)c(Oc2cccc3c2C(=O)N(C)C3)n1 | – | human patients, plasma | oral, 25 mg once daily repeated, geometric mean | – | mean residence time at steady state | 38.4 h
CNC(=O)c1cc(Oc2ccc(NC(=O)Nc3cc(C(C)(C)C)nn3-c3ccc4ncccc4c3)c(F)c2)ccn1 | pulmonary oedema, NCI CTC v3.0 | human patients | oral, 150 mg twice daily, tablet, dose at onset | – | related SAE | 3%
C[C@@H](NC(=O)N1C(=O)[C@H](Cc2ccnc(N)c2)[C@H]1C(=O)O)C1CCCCC1 | – | healthy adult Chinese volunteers | continuous intravenous infusion, 0.6 mg/kg/h, 5-day infusion, CTCAE 5.0 grading | – | incidence of elevated creatine phosphokinase | 0%
CC(C)[C@@H]1CC[C@@H](C)C[C@@H]1O | acute oral toxicity OECD | Swiss albino mice, serum | oral, 1000 mg/kg | – | total bilirubin | 0.44 ± 0.08 mg/dL
O=C(Nc1cccc(B(O)O)c1)c1cccc(OCc2ccccc2)c1 | PAMPA | pre-coated trilayer membrane | 200 µM, 5 h, pH 7.4, acceptor plate, PBS | – | acceptor concentration | 0.35 ± 0.07 µM
Oc1c(F)ccc(Cc2ccccc2)c1F | – | human plasma | – | – | fraction unbound | 0.01
C=C(C)[C@@H]1CCC(C)=C[C@H]1c1c(O)cc(CCC)c(C(=O)O)c1O | LC-MS/MS | Scn1a+/− mice, plasma | intraperitoneal, 100 mg/kg, after hyperthermia protocol | – | plasma concentration | 79 ± 10 µg/mL
COc1cc2c(Oc3ccc4[nH]c(C)cc4c3F)ccnc2cc1OCC1(N)CC1 | – | paediatric recurrent refractory sarcoma | 10 mg | – | grade 1 or 2 mouth ulcer | 0%
CN[C@@H](C)C(=O)N[C@H]1CN(S(=O)(=O)c2cccc(S(=O)(=O)N3CC[C@H]4CC[C@@H](C(=O)NC(c5ccccc5)c5ccccc5)N4C(=O)[C@@H](NC(=O)[C@H](C)NC)C3)c2)CC[C@H]2CC[C@@H](C(=O)NC(c3ccccc3)c3ccccc3)N2C1=O | – | patients with advanced solid tumours | 30 mg, phase I monotherapy | – | treatment-related facial nerve disorder incidence | 0%
CCc1ccc(CC/C=C/c2ccc3c(c2)C(=O)CC3)cc1 | – | Sprague-Dawley rat, female, serum | oral, 30 mg/kg/day, 14 days | – | creatinine | 25.7 µM
CN1CCN(S(=O)(=O)c2cc([N+](=O)[O-])ccc2N(CCOS(C)(=O)=O)CCOS(C)(=O)=O)CC1 | – | naive NOD/SCID mice, pooled blood | intraperitoneal, 25 mg/kg, week 4 | – | amylase | 676 U/L
CC(C)CC(=O)OC[C@H]1O[C@@](C#N)(c2ccc3c(N)ncnn23)[C@H](O)[C@@H]1O | plasma protein binding | mouse plasma | 9 µM, time not given | – | recovery | 94.1%
CC(=O)c1c(C)c2cnc(Nc3ccc(C4CCN(CCS(C)(=O)=O)CC4)cn3)nc2n(C2CCCC2)c1=O | – | HR+/HER2- advanced breast cancer patients | oral, dose not given, all grades,, total | – | patients with Neutropenia | 97.5%
CCN1CCN(Cc2ccc(Nc3ncc(F)c(-c4cc(F)c5nc6n(c5c4)[C@H](C)CCC6)n3)nc2)CC1 | Phase Ia dose escalation | patients with advanced solid tumours | dose not given, monotherapy | reference: patients | dose reduction for haematologic toxicity | 8.3%
CO[C@H]1C[C@@H]2CC[C@@H](C)[C@@](O)(O2)C(=O)C(=O)N2CCCC[C@H]2C(=O)O[C@H]([C@H](C)C[C@@H]2CC[C@@H](OC(=O)NCCOCCOCCOCCOCCOCCOCCOCCOCCC(=O)N3CCc4cc(Cn5nc(-c6ccc7oc(N)nc7c6)c6c(N)ncnc65)ccc4C3)[C@H](OC)C2)C[C@@H](O)[C@H](C)/C=C(\C)[C@@H](O)[C@@H](OC)C(=O)[C@H](C)C[C@H](C)/C=C/C=C/C=C/1C | – | patients with advanced solid tumours | intravenous, 16 mg weekly, grade 3 or higher | – | decreased appetite leading to dose reduction | 0%
O=[N+]([O-])NC1=NCCN1Cc1ccc(Cl)nc1 | – | whole cow milk | 200 nM nominal | – | dose fraction in milk fat | 2.45%
COc1ccc(-c2c(-c3ccc(C#N)c(F)c3)nc(N3CCC(N)CC3)n(C)c2=O)cc1F | measured: Dysgeusia | relapsed/refractory marginal zone lymphoma patients | oral, 60 mg, any grade, dose expansion | – | treatment-related adverse event incidence | 0%
COc1ncccc1-c1cnn2ccc(N3CCN(C(=O)OC(C)C)CC3)nc12 | – | rat, CCI mechanical allodynia model, plasma | oral, 30 mg/kg, 240 min | – | free drug concentration | 125 nM
O=C(Nc1ccccc1)C1CCN(C(=O)Oc2cccnc2)CC1 | psychotropic effects VAS | healthy women | 60 mg | reference: pre-dose baseline, direction not given | change in Anxious score | -0.5
N.N.[Cl][Pt][Cl] | – | nude mice, serum | dose not given, 10 days | – | AST | 208 ± 60 U/L
CC(c1cncnc1)n1c(=S)[nH]c2ccc(Cl)cc2c1=O (stereo not shown) | – | mouse, plasma | intravenous | – | clearance | 22.3 mL/min/kg
C[C@]1(O)C[C@@](N)(c2ccc(-c3nc4n(c3-c3ccccc3)COc3ccncc3-4)cc2)C1 | – | human, advanced or metastatic solid tumours | dose not given, all patients | – | patients with grade ≥3 Dyspnea TEAE | 11.8%
